# Results pooled from the literature.
# A part holds a random share of what one study measured. Substitutions count along the parent as printed.

# Set 1 — method: universal PBM; molecule type: double-stranded DNA, one strand shown; medium: in vitro; tested at: 600 nM; direction: higher = stronger binding
# Target: Sal-like protein 4, full length isoform A (SALL4, Homo sapiens, UniProt Q9UJQ4, residues 1-1053)
# Chain of UniProt Q9UJQ4 (whole entry, looked up): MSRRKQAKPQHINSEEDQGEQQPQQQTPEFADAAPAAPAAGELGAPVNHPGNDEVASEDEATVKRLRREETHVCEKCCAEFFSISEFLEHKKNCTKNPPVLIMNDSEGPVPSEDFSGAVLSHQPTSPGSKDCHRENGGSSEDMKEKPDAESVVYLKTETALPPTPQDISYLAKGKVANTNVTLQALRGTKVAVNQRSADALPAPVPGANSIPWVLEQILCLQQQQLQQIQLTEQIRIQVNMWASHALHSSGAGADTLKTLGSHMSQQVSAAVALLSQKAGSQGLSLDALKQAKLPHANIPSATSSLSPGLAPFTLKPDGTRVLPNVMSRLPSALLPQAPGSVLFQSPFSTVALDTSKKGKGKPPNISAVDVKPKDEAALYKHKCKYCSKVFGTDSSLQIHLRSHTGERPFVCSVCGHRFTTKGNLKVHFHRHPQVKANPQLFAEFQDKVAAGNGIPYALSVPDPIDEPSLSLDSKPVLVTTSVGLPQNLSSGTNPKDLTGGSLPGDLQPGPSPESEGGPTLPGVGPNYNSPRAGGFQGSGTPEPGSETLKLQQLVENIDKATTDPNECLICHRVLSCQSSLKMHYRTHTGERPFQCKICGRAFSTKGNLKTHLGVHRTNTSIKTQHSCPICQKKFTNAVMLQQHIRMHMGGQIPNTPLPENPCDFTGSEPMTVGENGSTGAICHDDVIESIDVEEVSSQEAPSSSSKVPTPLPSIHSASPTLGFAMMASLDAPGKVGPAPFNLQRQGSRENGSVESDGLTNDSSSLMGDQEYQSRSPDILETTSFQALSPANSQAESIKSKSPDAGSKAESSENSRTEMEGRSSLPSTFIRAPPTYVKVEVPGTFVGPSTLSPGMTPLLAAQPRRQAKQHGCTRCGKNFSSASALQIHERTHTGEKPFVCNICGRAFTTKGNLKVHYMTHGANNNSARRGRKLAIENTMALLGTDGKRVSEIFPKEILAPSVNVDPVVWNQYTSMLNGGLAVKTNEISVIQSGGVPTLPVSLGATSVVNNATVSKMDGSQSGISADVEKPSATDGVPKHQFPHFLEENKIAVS
# Notes: 8-mer, flanks averaged, mean of replicates
Sequence,E-score
CATCTACC,-0.0403
CGGACATC,-0.211
ACAGAGTA,0.0909
CAGACCCA,-0.147
ATCACTAA,0.17
ACACACCG,-0.164
CATTCCCA,0.15
GCAAGTAC,0.0235

# Set 2 — method: protein-binding microarray; molecule type: double-stranded DNA, one strand shown; medium: in vitro; tested at: 250 nM; notes: 60-bp whole probe; added: salmon DNA 0.4 mg/ml; reference: random background probes; direction: higher = stronger binding; constant ends, left off below: GCCTAGCAC … GTCTTGATTCGCTTGACGCTGCTG
# Target: Interferon regulatory factor 7, full length, phosphomimetic (IRF7, Homo sapiens, UniProt Q92985, residues 1-503, S101K/S471D/S472D/S475D/S476D/S477D/S483D/S484D/S487D)
# Target sequence (chain): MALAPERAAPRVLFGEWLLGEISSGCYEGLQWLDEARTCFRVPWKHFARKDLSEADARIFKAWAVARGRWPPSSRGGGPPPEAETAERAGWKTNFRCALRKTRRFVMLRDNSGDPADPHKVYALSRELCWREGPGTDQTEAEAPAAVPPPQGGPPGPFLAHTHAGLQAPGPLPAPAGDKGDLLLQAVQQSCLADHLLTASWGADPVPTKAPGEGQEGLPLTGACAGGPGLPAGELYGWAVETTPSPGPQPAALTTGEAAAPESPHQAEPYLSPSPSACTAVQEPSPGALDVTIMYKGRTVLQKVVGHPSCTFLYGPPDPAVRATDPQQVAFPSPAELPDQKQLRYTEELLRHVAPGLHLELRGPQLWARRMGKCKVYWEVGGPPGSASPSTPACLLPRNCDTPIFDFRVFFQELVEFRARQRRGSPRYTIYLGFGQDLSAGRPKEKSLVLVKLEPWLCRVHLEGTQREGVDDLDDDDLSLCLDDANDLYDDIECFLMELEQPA
Sequence,log fluorescence
GATGGACTGGGGTATCGGGACGTGCTA,-0.653 z-score
TTAGGTCTTGGACTGGGTTAGTGCTAG,-0.223 z-score
TTAGGACTGGGGACTGGATTAGTGCTA,-0.329 z-score
TGTAGTGTGTGTCTGATTATGTGCTAG,-0.351 z-score
GACGGTTTCGGTTTCGGGAAGTGCTAG,14.3 z-score
TCATACATCTCTCTTAAACTGTGCTAG,0.406 z-score

# Set 3 — target: CCND1, cyclin fold, Cln2 fusion (human); method: yeast growth competition, sequencing; medium: yeast; notes: weak parent motif; reference: not given; direction: higher = stronger binding
# Starting sequence: WEE1 docking peptide (human); HKTFRKLRLFDTP
Change,normalised enrichment score
HKTFRKLRLFDEP [T12E],0.299
HKTFRKLRLFDTC [P13C],0.387
HKYFRKLRLFDTP [T3Y],-1.31
HKTFRKKRLFDTP [L7K],-0.711
HKTFRKLRLFDWP [T12W],0.533

# Further values, each from its own experiment
Molecule,target,assay,system,conditions,scale,quantity,value
"PhoQ, residues 284 288 289 292 302 303 NLCILV","PhoP, residues 12 14 15 18 19 TPWLV (Escherichia coli, UniProt P23836)","Sort-seq, refers to: YFP reporter",E. coli,"PhoQ-PhoP variant library, added: 10 µM Mg2+","reference: high Mg2+ state, higher = stronger signaling",fold induction,15.7

# Repeated from above (set 3):
Change,normalised enrichment score
HKYFRKLRLFDTP [T3Y],-1.31
HKTFRKKRLFDTP [L7K],-0.711
HKTFRKLRLFDWP [T12W],0.533
